Measured values of several laboratories.
Each line is one published result; not all experiments were run side by side. ± gives the spread as reported.
POLB I260M: DNA polymerase beta (POLB, Homo sapiens, UniProt P06746, I260M)
SCTR: Secretin receptor (SCTR, Homo sapiens, UniProt P47872)
Chain of UniProt P47872 (whole entry, looked up): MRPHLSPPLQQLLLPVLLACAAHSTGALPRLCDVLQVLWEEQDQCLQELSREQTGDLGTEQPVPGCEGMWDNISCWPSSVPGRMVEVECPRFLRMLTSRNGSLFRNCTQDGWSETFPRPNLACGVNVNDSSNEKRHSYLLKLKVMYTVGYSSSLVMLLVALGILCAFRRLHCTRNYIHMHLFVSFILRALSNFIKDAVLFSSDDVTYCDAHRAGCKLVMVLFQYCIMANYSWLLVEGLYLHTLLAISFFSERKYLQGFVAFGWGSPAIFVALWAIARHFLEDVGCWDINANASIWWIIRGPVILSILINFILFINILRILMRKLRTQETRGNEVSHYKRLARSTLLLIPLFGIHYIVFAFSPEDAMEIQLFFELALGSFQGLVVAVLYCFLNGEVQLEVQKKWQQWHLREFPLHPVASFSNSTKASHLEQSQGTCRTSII
Chain of UniProt Q8NEB9 (whole entry, looked up): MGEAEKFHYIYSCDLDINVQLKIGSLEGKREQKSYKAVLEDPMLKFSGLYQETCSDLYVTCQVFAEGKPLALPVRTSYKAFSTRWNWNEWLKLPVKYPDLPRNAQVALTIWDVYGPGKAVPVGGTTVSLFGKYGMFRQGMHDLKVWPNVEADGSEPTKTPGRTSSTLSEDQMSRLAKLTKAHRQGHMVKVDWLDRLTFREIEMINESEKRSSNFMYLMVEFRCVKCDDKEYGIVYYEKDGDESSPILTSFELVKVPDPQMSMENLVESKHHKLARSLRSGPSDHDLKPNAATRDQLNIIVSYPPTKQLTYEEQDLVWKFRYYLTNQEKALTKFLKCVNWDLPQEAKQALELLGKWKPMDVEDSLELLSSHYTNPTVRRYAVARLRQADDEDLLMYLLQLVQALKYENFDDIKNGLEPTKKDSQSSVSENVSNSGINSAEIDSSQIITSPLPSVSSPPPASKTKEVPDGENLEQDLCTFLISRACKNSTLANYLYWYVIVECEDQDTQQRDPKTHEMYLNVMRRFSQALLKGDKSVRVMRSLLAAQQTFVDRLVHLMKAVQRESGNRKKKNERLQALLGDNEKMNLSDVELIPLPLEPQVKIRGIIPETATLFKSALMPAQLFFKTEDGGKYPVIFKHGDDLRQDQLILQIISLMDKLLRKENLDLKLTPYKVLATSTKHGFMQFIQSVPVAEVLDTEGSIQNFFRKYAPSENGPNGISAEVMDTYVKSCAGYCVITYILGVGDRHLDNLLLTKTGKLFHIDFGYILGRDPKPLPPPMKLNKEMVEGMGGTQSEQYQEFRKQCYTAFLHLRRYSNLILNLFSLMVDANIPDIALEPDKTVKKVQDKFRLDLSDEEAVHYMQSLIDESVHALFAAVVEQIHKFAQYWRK
Chain of UniProt O43283 (whole entry, looked up): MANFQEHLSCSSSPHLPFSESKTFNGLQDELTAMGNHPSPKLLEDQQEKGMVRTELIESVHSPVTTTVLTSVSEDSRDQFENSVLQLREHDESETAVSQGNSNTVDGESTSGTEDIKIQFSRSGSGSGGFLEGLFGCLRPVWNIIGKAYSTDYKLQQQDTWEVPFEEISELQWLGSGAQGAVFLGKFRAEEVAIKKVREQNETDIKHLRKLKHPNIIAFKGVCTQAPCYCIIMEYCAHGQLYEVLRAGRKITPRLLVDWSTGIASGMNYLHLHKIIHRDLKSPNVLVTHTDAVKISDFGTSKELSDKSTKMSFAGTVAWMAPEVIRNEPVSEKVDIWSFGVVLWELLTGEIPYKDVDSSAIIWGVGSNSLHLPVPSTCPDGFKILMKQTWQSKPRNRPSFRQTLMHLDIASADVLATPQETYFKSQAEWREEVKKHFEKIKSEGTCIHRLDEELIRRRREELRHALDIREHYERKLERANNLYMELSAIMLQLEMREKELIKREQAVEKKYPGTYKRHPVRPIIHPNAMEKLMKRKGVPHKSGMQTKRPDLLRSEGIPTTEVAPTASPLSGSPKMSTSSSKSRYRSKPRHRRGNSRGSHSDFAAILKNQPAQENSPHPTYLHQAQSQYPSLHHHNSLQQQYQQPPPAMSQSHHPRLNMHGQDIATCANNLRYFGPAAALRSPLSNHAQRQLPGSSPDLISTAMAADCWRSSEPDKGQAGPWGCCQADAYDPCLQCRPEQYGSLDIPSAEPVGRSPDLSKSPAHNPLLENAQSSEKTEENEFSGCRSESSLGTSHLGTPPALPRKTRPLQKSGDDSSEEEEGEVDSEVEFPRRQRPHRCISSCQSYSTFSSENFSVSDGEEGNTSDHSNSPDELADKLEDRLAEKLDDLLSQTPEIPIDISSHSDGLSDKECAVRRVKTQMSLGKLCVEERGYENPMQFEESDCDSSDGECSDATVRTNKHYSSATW
Chain of UniProt P30803 (whole entry, unmodified, looked up): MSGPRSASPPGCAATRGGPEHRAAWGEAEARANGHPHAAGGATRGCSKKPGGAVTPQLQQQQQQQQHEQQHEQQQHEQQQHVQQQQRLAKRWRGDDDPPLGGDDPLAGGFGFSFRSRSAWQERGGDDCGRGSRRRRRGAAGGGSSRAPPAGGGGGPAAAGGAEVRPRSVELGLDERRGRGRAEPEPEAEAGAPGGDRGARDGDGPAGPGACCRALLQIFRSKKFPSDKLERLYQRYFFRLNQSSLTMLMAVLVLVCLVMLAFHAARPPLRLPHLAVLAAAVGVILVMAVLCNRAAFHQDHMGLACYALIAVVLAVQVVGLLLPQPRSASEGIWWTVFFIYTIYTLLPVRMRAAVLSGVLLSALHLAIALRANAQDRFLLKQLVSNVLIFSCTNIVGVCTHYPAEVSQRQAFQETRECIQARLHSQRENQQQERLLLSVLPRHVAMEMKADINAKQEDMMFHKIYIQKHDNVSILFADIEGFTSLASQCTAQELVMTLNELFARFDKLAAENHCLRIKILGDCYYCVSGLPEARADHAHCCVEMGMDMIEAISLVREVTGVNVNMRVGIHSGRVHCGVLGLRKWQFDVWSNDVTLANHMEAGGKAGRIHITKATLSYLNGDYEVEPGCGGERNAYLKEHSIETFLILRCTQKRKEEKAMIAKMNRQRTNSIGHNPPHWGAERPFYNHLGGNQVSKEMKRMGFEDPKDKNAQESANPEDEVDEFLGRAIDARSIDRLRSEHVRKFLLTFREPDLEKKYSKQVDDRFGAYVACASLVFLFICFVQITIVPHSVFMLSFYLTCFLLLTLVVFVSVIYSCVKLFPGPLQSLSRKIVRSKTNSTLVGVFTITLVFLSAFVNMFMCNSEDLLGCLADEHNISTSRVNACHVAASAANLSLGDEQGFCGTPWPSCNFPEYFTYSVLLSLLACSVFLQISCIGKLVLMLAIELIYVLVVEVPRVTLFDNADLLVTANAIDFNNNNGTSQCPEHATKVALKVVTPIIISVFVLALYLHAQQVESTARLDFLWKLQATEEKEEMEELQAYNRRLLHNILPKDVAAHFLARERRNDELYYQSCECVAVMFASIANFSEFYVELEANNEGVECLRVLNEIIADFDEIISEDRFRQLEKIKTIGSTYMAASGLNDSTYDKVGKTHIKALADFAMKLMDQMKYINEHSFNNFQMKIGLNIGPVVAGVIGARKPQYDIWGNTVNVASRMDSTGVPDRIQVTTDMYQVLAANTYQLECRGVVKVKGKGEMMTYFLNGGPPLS
Chain of UniProt P03951 (whole entry, looked up): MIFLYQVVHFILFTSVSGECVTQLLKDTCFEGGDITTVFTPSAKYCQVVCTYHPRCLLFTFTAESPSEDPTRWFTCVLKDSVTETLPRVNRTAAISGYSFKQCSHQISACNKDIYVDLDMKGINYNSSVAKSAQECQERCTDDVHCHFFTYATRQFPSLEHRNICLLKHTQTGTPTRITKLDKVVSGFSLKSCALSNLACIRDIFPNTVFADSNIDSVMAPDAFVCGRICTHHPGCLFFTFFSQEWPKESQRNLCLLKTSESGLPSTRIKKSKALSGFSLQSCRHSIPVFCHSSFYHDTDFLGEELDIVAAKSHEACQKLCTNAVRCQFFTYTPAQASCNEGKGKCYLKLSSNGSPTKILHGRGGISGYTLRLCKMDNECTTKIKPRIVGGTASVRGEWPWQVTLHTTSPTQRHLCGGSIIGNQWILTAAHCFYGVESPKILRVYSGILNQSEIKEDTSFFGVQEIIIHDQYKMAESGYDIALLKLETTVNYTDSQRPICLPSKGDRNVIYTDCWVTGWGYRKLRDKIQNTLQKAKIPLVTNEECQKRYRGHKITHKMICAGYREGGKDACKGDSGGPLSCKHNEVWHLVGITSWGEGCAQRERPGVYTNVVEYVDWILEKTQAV
Chain of UniProt P18054 (whole entry, looked up): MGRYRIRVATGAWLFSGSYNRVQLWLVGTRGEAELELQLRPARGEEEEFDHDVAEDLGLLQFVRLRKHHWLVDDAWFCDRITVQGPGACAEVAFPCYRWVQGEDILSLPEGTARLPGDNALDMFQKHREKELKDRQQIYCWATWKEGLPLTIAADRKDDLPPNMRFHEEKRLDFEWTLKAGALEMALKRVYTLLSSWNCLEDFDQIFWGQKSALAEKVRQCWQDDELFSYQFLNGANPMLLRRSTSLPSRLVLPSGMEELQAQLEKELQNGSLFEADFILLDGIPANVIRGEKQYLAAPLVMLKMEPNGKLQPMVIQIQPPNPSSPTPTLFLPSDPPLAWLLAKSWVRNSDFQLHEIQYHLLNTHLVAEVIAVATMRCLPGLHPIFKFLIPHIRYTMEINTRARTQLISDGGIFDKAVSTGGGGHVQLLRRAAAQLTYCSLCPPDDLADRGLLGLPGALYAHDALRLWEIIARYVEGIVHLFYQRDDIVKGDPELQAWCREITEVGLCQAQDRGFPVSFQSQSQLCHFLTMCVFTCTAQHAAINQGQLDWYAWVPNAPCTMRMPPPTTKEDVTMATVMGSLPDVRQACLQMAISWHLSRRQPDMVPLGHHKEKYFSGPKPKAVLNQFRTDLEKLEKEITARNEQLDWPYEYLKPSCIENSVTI

SMILES | target | test | system | conditions | how to read | measurement | value
Cc1ccc(C(=O)Nc2ccc(CP(=O)(O)O)cc2CP(=O)(O)O)cc1NC(=O)c1cccc(NC(=O)Nc2cccc(C(=O)Nc3cc(C(=O)Nc4ccc(CP(=O)(O)O)cc4CP(=O)(O)O)ccc3C)c2)c1 | F11 (Homo sapiens, UniProt P03951) | enzyme activity, inhibitor | – | 100 µM, added: S-2366 substrate | – | Vmax | 45.7 ± 4.2 mAU/min
Nc1nc2c(ncn2[C@H]2C[C@H](O)[C@@H](COP(=O)(O)OP(=O)(O)CP(=O)(O)O)O2)c(=O)[nH]1 | POLB I260M | nucleotide incorporation, substrate, single turnover kinetics | – | dG misincorporation opposite A | – | kpol/Kd | 3.1e-06 ± 1.2e-06 µM⁻¹ s⁻¹
O=C(/C=C/c1ccccc1)Oc1ccc2c(c1)O/C(=C\C=C\c1ccccc1)C2=O | PIK3C3 (Homo sapiens, UniProt Q8NEB9) | CETSA | HeLa cell lysate | 10 µM | – | thermal shift | ~5 °C
CC[C@H](C)[C@H](NC(C)=O)C(=O)N[C@@H](C)C(=O)N[C@@H](CCC(=O)O)C(=O)N[C@@H](CCC(N)=O)C(=O)N[C@@H](CC(C)C)C(=O)N[C@@H](CCCNC(=N)N)C(=O)N[C@@H](CCCNC(=N)N)C(=O)N[C@H](C(=O)NCC(=O)N[C@@H](CC(=O)O)C(=O)N[C@@H](CCCNC(=N)N)C(=O)N[C@@H](Cc1ccc(O)cc1)C(N)=O)[C@@H](C)CC | MCL1 (Homo sapiens, UniProt Q07820) | DELFIA displacement | – | added: biotinylated BIM BH3 peptide | relative to: compound over reference | IC50 ratio | ~25
Oc1ccc(/C=C/c2nc(CCc3ccccc3)no2)cc1O | ALOX12 (Homo sapiens, UniProt P18054) | enzyme activity in cells, inhibitor, HPLC | HEK293 | 1 µM | – | remaining activity | 68.2%
Cc1cn(C2CC(O)C(COP(=O)(O)OP(=O)(O)C(F)(Cl)P(=O)(O)O)O2)c(=O)[nH]c1=O (mixture of isomers) | POLB I260M | nucleotide incorporation rate, substrate, single-turnover kinetics | single-nucleotide gapped DNA | 37 °C, I260M, correct incorporation, added: dTTP opposite template A | – | kpol | 1.3 ± 0.1 s⁻¹
NC(=O)C1CCCCNC(=O)C(CCCNC(=O)c2cnccn2)NC(=O)C(Cc2ccco2)NC(=O)C(CC2CC2)NC(=O)C=CC(=O)N1 (centres unmarked) | KDR (Homo sapiens, UniProt P35968) | DNA-templated library selection | – | one selection round | – | enrichment factor | 1.4
COc1cncc(C(=O)N2CC3CCC(N)C3C2)n1 (centres unmarked) | HTR2A (Homo sapiens, UniProt P28223) | β-arrestin recruitment, agonist | – | – | – | Emax | 102%
Cc1ccccc1NC(=O)CSc1nc(-c2ccc(Cl)cc2)cc(C(F)(F)F)n1 | SCTR | increase of tracer binding, TR-FRET | HEK293 membranes | added: Fluo-Sec 6 nM | – | Emax | 121 ± 9.2%
CNc1ccccc1C(=O)O[C@H]1[C@@H](O)[C@H](n2ccc(N)nc2=O)O[C@@H]1COP(=O)(O)OP(=O)(O)O | ADCY5 (Canis lupus, UniProt P30803) | – | Sf9 membranes | – | relative to: NDP over NTP | potency loss on γ-phosphate deletion | 5 to 30 fold
Cc1ncsc1-c1ccc([C@H](C)NC(=O)[C@@H]2C[C@@H](O)CN2C(=O)[C@@H](NC(=O)[C@H]2C[C@H](C(=O)N3CCC(c4cc(Nc5cc(C#N)ccn5)nc(N5CCC(F)(F)C5)c4)CC3)C2)C(C)(C)C)cc1 | MAP3K13 (Homo sapiens, UniProt O43283) | degrader, western blot | CAL-33 (dox-induced wild-type MAP3K13) | concentration not given | – | time to protein signal recovery | 48 h
COc1ccc(-c2cc(C(F)(F)F)nc(S(=O)(=O)CCCC(=O)Nc3c(F)cc(F)cc3Br)n2)cc1OC | SCTR | increase of tracer binding, TR-FRET | HEK293 membranes | added: Fluo-Sec 6 nM | – | Emax | 128 ± 15%
CC(C)CCC[C@@H](C)[C@H]1CC[C@H]2[C@@H]3CC=C4C[C@@H](OS(=O)(=O)O)CC[C@]4(C)[C@H]3CC[C@]12C | Prothrombin (F2, Homo sapiens, UniProt P00734) | enzyme activity, inhibitor | – | added: hirudin peptide 0 nM | – | ΔY | 83.9 ± 9.2%
N#Cc1cccc(-c2ccc(=O)n(Cc3cccc(-c4ncc(OCC5CCN(CC(=O)N6CCN(c7ccc8c(c7)C(=O)N(C7CCC(=O)NC7=O)C8=O)CC6)CC5)cn4)c3)n2)c1 (centres unmarked) | MET (Homo sapiens, UniProt P08581) | degrader | EBC-1 | – | – | Dmax | 99%

For quick reference, copied from above:
SMILES | target | test | system | conditions | how to read | measurement | value
NC(=O)C1CCCCNC(=O)C(CCCNC(=O)c2cnccn2)NC(=O)C(Cc2ccco2)NC(=O)C(CC2CC2)NC(=O)C=CC(=O)N1 (centres unmarked) | KDR (Homo sapiens, UniProt P35968) | DNA-templated library selection | – | one selection round | – | enrichment factor | 1.4
